# Published values collected from several papers.
# A part holds a random share of what one study measured.

# Set 1
# Target: Replicase polyprotein 1ab, polymerase (rep, Severe acute respiratory syndrome coronavirus 2, UniProt P0DTD1)
# Effect on: enzyme activity
# Mode: inhibitor
# Tested at: 20 µM
SMILES,inhibition
CS(=O)(=O)Nc1c(O)ccc2c1CCCC2C1=NCCN1 (stereo not shown),3%
COc1cccc2c1C(=O)c1c(O)c3c(c(O)c1C2=O)C[C@@](O)(C(=O)CO)C[C@@H]3O[C@H]1C[C@H](N)[C@H](O)[C@H](C)O1,128%
CCCCCCCCN=c1ccn(CCCCCCCCCCn2ccc(=NCCCCCCCC)cc2)cc1,78%
CCCCOc1cc(C(=O)NCCN(CC)CC)c2ccccc2n1,17.3%
COc1cc(C(=O)O)ccc1NC(=O)[C@@H]1N[C@@H](CC(C)(C)C)[C@](C#N)(c2ccc(Cl)cc2F)[C@H]1c1cccc(Cl)c1F,-2.27%
C=Cc1c(C)c2cc3nc(c(CC(=O)O)c4[nH]c(cc5nc(cc1[nH]2)C(C)=C5CC)c(C)c4C(=O)O)[C@@H](CCC(=O)O)[C@@H]3C,98.3%
CCn1c(=O)[nH]c2ccccc21,-0.31%
CC(C)(C)S(=O)(=O)N[C@H]1CC[C@H](C(=O)Nc2ccc(C(F)(F)F)cn2)CC1,-1.1%
NCCCS(=O)(=O)O,45.6%
Nc1nccc(-c2ccc3noc(-c4ccc(Cl)cc4)c3c2)n1,-1.99%
CCNC(=O)C[C@@H]1N=C(c2ccc(Cl)cc2)c2cc(OC)ccc2-n2c(C)nnc21,-2.68%

# Set 2
# Target: Replicase polyprotein 1ab, main protease (rep, Severe acute respiratory syndrome coronavirus 2, UniProt P0DTD1)
# Effect on: enzyme activity
# Mode: inhibitor
# Tested at: 20 µM
# Setting: with DTT
Compound,inhibition [%]
C=C1c2cccc(O)c2C(=O)C2C(=O)[C@]3(O)C(=O)C(C(N)=O)C(=O)[C@@H](N(C)C)[C@@H]3[C@@H](O)[C@H]12 (stereo partly shown),10.3
N=C(N)N=Nc1ccc(NNC(=N)S)cc1,1.78
C[C@@H]1O[C@@H](Oc2c(-c3cc(O)c(O)c(O)c3)oc3cc(O)cc(O)c3c2=O)[C@@H](O)[C@H](O)[C@H]1O,-10.3

# Set 3
# Cell line: HEK-293T-ACE2
# Tested at: concentration not given
# Relative to: vehicle
Structure (SMILES),cell number
Nc1cccc2c1CN(C1CCC(=O)NC1=O)C2=O (stereo not shown),101%
COc1cc2nccc(Oc3ccc(NC(=O)C4(C(=O)Nc5ccc(F)cc5)CC4)cc3)c2cc1OC,86.3%
O=C(CCCCCCC(=O)Nc1ccccc1)NO,72.6%

# Single results of other studies
# rep main protease: Replicase polyprotein 1ab, main protease (rep, Severe acute respiratory syndrome coronavirus 2, UniProt P0DTD1)
Substance,target or system,assay,system,conditions,how to read,measurement,value
CC[C@H](C)[C@H](NC(=O)[C@H](CC(C)C)NC(=O)[C@H](Cc1c[nH]c2ccccc12)NC(=O)[C@H](CCC(N)=O)NC(=O)[C@@H](NC(=O)[C@H](Cc1ccccc1)NC(=O)[C@H](C)NC(=O)[C@H](CCCCNC(=O)COCCOCCNC(=O)COCCOCCNC(=O)CC[C@H](NC(=O)CCCCCCCCCCCCCCCCCCC(=O)O)C(=O)O)NC(=O)[C@H](CCC(N)=O)NC(=O)[C@H](C)NC(=O)[C@@H](NC(=O)[C@H](CCCCN)NC(=O)[C@H](CC(=O)O)NC(=O)[C@H](CC(C)C)NC(=O)C(C)(C)NC(=O)[C@@H](NC(=O)[C@H](CO)NC(=O)[C@H](Cc1ccc(O)cc1)NC(=O)[C@H](CC(=O)O)NC(=O)[C@H](CO)NC(=O)[C@@H](NC(=O)[C@H](Cc1ccccc1)NC(=O)[C@@H](NC(=O)CNC(=O)[C@H](CCC(=O)O)NC(=O)C(C)(C)NC(=O)[C@@H](N)Cc1ccc(O)cc1)[C@@H](C)O)[C@@H](C)O)[C@@H](C)CC)[C@@H](C)CC)C(C)C)C(=O)N[C@@H](C)C(=O)NCC(=O)NCC(=O)N1CCC[C@H]1C(=O)N[C@@H](CO)C(=O)N[C@@H](CO)C(=O)NCC(=O)N[C@@H](C)C(=O)N1CCC[C@H]1C(=O)N1CCC[C@H]1C(=O)N1CCC[C@H]1C(=O)N[C@@H](CO)C(N)=O,,item: anti-drug antibodies,patients with type 2 diabetes,"5/5/10/10 mg escalating, titer ≥1:20",,subjects with treatment-induced ADA,0%
FLPGVYSV,,AIM,"peptide, CD8+ T cells from PBMC, human donors","HLA-A*02:01 restricted, unit not given",relative to: positive over tested donors,frequency of responding donors,100
O=C(O)c1ccc(Cl)cc1O,rep main protease,"reporter gene (mKate2), inhibitor",,20 µM,,inhibition,-0.662%
VSSQCVNLTTRTQLP,human CD4 T cells,AIM,peptide,,,responding donors,8%
O=C(O)c1cc(=O)cc(C(=O)O)o1,rep main protease,"reporter gene (Gaussia luciferase), inhibitor",,20 µM,,inhibition,2.07%

# Excerpt of the above (set 3):
Structure (SMILES),cell number
COc1cc2nccc(Oc3ccc(NC(=O)C4(C(=O)Nc5ccc(F)cc5)CC4)cc3)c2cc1OC,86.3%
Nc1cccc2c1CN(C1CCC(=O)NC1=O)C2=O (stereo not shown),101%
O=C(CCCCCCC(=O)Nc1ccccc1)NO,72.6%
